Measured values of several laboratories.
A part holds a random share of what one study measured. Positions count from the first letter of the parent shown.

Set 1
Target: ABI1, truncated, D143A, DHFR fusion (Arabidopsis thaliana)
Technique: DHFR PCA, deep sequencing
Medium: yeast
Setting: methotrexate growth selection, single substitutions
With: (+)-ABA 0.0091 µM
Relative to: wild-type fitted maximum
Reading: higher = stronger binding
Measurement: relative binding score
Parent: PYL1, truncated, DHFR fusion (Arabidopsis thaliana); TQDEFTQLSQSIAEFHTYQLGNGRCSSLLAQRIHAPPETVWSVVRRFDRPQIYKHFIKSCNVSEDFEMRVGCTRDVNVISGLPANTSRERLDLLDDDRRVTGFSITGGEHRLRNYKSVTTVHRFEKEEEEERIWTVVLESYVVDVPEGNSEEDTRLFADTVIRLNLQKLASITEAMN; partner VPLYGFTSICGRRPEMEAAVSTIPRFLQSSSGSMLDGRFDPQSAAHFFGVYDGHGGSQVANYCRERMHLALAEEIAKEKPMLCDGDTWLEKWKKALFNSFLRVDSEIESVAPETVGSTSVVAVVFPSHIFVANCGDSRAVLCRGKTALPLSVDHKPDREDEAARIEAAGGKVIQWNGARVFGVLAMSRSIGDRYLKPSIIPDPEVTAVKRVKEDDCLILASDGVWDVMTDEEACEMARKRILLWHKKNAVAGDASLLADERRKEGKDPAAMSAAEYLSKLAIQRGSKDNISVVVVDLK
L169E: -2.35%
L112S: -2.17%
L166W: 0.24%
V143D: -2.54%
Y141E: 2.25%
G23S: 6.69%
E130F: 5.97%
E147Q: 16%

Set 2
Target: DBP, bZIP domain (human)
Technique: DHFR protein complementation
Medium: yeast
Setting: single substitutions, most at no-binding floor
Relative to: wild-type JUN-FOS pair
Reading: higher = stronger binding
Measurement: binding fitness
Parent: JUN, bZIP domain (human); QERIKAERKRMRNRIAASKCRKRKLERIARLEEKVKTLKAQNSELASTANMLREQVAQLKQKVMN; partner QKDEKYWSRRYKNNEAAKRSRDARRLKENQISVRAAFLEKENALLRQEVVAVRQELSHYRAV
L38K: -1.54 natural log
S47F: -1.45 natural log
A57S: -1.61 natural log
T37N: -1.41 natural log
Q41K: -1.5 natural log
L31S: -1.5 natural log
L52T: -1.46 natural log
A46S: -1.42 natural log
A49C: -1.32 natural log
S43R: -1.47 natural log

Single results of other studies
LLKRLQDVVSERA  enrichment score (human cyclin A2; peptide binding, competitive growth sequencing; peptide, Saccharomyces cerevisiae, cyclin A2-Cln2 fusion strain; mutational scanning library 2; direction not given): -0.468
PhoQ, residues 284 288 289 292 302 303 NLCILV  fold induction (PhoP, residues 12 14 15 18 19 LHHSG (Escherichia coli, UniProt P23836); Sort-seq, refers to: YFP reporter; E. coli; PhoQ-PhoP variant library, with: 10 µM Mg2+; relative to: high Mg2+ state, higher = stronger signaling): 7.39
ASPLKKLFTSTGL  enrichment score (Saccharomyces cerevisiae; peptide binding, yeast competitive growth sequencing; peptide, cyclin E2-Cln2 fusion; library 1; direction not given): -0.664

For quick reference, copied from above (set 2):
S47F: -1.45 natural log
S43R: -1.47 natural log
